Results of several laboratories.
BRAF V600E: Serine/threonine-protein kinase B-raf (BRAF, Homo sapiens, UniProt P15056, V600E)
BRAF: Serine/threonine-protein kinase B-raf (BRAF, Homo sapiens, UniProt P15056)

Compound	target	assay	setting	scale	remaining binding [%]
CNC(=O)C1CCN(c2cc(C)c(F)cc2NC(=O)c2ccc(-c3cc(O)ccc3C)c(C)c2)CC1	BRAF V600E	binding, competition with immobilised ligand	1 µM		100
COc1ccc(NC(=O)Nc2ccc3c(c2)C(=O)N(C(C)CO)CC(C)C(CN(C)Cc2ccc4c(c2)OCO4)O3)cc1 (stereo not shown)	BRAF V600E	binding, competition with immobilised ligand	10 µM		65
COc1c(Cl)cccc1Nc1c(-c2ccncc2C#C[C@@]2(C)CCCN2C(=O)/C=C/CN(C)C)[nH]c2c1C(=O)NCC2	BRAF V600E	cell-free assay, competition with immobilised ligand	3 µM		5.7
Cc1ccc(C(=O)Nc2cccc(C(F)(F)F)c2)cc1Nc1cncc(C(N)=O)c1	BRAF V600E	binding, competition with immobilised ligand	1 µM		0.15
CC(C)=CC1OC(C)(C)C2C=C3C(=O)C(Cl)=CC(O)C3C3C(O)C4OC4C(=O)C132 (stereo not shown)	BRAF	cell-free assay, competition with immobilised ligand	10 µM		100
Nc1ncc2c(n1)-c1c([nH]c3ccc(C4=CCOCC4)cc13)CCC2	BRAF	binding, competition with immobilised ligand	1 µM		100
COc1cc(Nc2nccc(-c3cnn4nc(OC)ccc34)n2)cc(C(F)(F)F)c1	BRAF V600E	binding	1 µM		100
CNS(=O)(=O)Nc1nccc(Cc2c(C)c3ccc(Oc4ncccc4F)cc3oc2=O)c1F	BRAF V600E	cell-free assay, competition with immobilised ligand	10 µM		85
CCN1CCN(Cc2ccc(C(=O)Nc3ccc(C)c(NCc4cnc5[nH]ccc5c4OC)c3)cc2C(F)(F)F)CC1	BRAF	binding, competition with immobilised ligand	1 µM		11
Cc1cnc2nc1Nc1cccc(c1)COC/C=C/COCc1cc(ccc1OCCN1CCOCC1)N2	BRAF	binding	0.1 µM		96
CN1CCN(Cc2ccc(NC(=O)c3cccc(C#Cc4cnc(N)c5ncccc45)c3)cc2C(F)(F)F)CC1	BRAF	cell-free assay, competition with immobilised ligand	0.5 µM		0.5
CNC1C[S+]2CC[S+]3CC[S+](C1)[Ru-4]321([N]=C=S)[n]2c3ccc(OC)cc3c3c4c(c5cc(F)c[n+]1c5c32)C(=O)NC4=O (stereo not shown)	BRAF	KinomeScan	0.1 µM	baseline: untreated	100
CC(=O)N1c2ccc(-c3ccc(CNC(=O)c4cn5cc(-c6cnc(N)nc6)nc(N6CCOCC6)c5n4)cc3)cc2CC[C@@H]1C	BRAF	KINOMEscan	10 µM		33
Cc1ccc(-c2c(/C=C(\C#N)C(=O)NC(C)C)n(CCCO)c3ncnc(N)c23)cc1	BRAF	cell-free assay, competition with immobilised ligand	1 µM		56
C=CC(=O)N1CCCC(n2c(=O)c3ncccc3n(Cc3ccc(Oc4ccccc4)cc3)c2=O)C1 (stereo not shown)	BRAF V600E	cell-free assay, competition with immobilised ligand	1 µM		89
C=CC(=O)N1CCc2ccc(-n3c(=O)ccc4cnc5ccc(-c6cnn(C)c6)cc5c43)cc21	BRAF V600E	KINOMEscan	1 µM	baseline: DMSO control	100

A few entries again:
Compound	target	assay	setting	scale	remaining binding [%]
C=CC(=O)N1CCCC(n2c(=O)c3ncccc3n(Cc3ccc(Oc4ccccc4)cc3)c2=O)C1 (stereo not shown)	BRAF V600E	cell-free assay, competition with immobilised ligand	1 µM		89
CCN1CCN(Cc2ccc(C(=O)Nc3ccc(C)c(NCc4cnc5[nH]ccc5c4OC)c3)cc2C(F)(F)F)CC1	BRAF	binding, competition with immobilised ligand	1 µM		11
